# Assay results gathered from unrelated publications.
# Lines come from different studies, so protocols differ. Several values in a cell are separate wells, animals, samples, runs or records. ± marks the error that the study gave. Ends that are not written are not given here.
# B1: Urtica dioica agglutinin; sequence looked up; chain QRCGSQGGGGTCPALWCCSIWGWCGDSEPYCGRTCENKCWSGERSDHRCGAAVGNPPCGQDRCCSVHGWCGGGNDYCSGSKCQYRCSSSVRGPRVALSGNSTANSIGNVVVTEPLFDQMFSHRKDCPSQGFYSYHSFLVAAESFPAFGTIGDVATRKREVAAFLAHISQATSGERSDVENPHAWGLCHINTTTVTENDFCTSSDWPCAAGKKYSPRGPIQLTHNFNYGLAGQAIGEDLIQNPDLVEKDPIISFKTALWFWMSQHDNKPSCHDIVLNANSAANRIPNKGVIGNIISRAFGHDDFAVRSSSIGFYKRYCDMLGVSYGHDLKYWFDNTPSSEFQRIQMRVAA
# B2: disulfide; chain ATCYCRTGRCATRESLSGVCEISGRLYRLCCR (disulfide (positions not given here))
# Sequence of UniProt O43614 (whole entry, unmodified, looked up): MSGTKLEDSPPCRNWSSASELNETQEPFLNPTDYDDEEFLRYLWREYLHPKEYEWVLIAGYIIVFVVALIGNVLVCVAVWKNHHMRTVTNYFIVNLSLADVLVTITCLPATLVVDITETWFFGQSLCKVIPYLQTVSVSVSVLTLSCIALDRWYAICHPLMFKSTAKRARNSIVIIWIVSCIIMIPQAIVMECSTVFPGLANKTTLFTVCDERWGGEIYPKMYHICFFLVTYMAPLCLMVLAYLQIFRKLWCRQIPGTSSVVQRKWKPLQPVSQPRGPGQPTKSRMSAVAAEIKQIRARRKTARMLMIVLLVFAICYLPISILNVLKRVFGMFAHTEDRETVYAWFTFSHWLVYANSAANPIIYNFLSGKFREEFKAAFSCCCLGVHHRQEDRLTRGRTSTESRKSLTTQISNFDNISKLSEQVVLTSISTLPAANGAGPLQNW
# Sequence of UniProt P34897 (whole entry, unmodified, looked up): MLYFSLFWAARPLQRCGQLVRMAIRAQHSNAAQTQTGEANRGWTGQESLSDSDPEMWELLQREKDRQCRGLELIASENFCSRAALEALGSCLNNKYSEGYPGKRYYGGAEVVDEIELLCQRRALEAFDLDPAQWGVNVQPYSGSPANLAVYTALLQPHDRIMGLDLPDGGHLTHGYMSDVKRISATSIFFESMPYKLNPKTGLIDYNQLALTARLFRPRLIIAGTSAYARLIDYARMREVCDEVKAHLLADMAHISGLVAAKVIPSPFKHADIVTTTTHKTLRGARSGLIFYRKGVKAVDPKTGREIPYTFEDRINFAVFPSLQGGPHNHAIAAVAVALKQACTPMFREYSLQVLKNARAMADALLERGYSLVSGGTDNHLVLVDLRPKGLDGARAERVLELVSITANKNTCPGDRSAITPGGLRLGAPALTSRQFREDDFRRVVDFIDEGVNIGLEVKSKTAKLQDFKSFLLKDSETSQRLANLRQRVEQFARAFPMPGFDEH
Substance,tested on,test,test system,setting,how to read,endpoint,value
aspterric acid,Arabidopsis thaliana,hypocotyl length,"Col-0, seedlings","50 µg/mL, with BCAA",,inhibition,21.1%
RRNQKRKRGYNSV,Streptococcus iniae,"bacterial survival, plate count",peptide,"20 µM, 4 h, room temperature",reference: untreated control,bacterial killing,56.5%
thiostrepton,Streptococcus pneumoniae,,penicillin-intermediate,,,MIC,≤ 0.001 µg/mL
baccatin,Bovine alphaherpesvirus 1,"viral replication, primary screen",,"5 µM, 12 h pre-incubation",,inhibition,> 90%
caspofungin,Aspergillus fumigatus,,"pkcA G579R, solid minimal medium","0.125 µg/mL, 4 days, 37 °C",reference: untreated control,radial growth ratio,0.128 and 0.138 and 0.16
vancomycin,Saccharomyces cerevisiae,yeast growth,,,,IC50,> 40 µM
Polymyxin B,Escherichia coli,broth microdilution,E23 clinical isolate,20 h,,MIC,1 µg/mL
amyloid β-peptide (1–28),,"substrate, LC-MS",phosphate buffer,"10 µM, 2 h, pH 7.4, 25 °C, together with: imprinted nanoparticle 1 equiv",,remaining substrate,82.4 ± 3.2%
KKRRRGLSRFRMGRGY,Micrococcus luteus,"bacterial survival, plate count",peptide,"20 µM, 4 h, room temperature",reference: untreated control,bacterial killing,100%
hexaarginine,PorA peptide pore,"peptide binding, planar bilayer single-channel recording",,"pH 7.4, -25 mV, cis side, 150 mM KCl",,Kd,29.5 ± 3 µM
"RNA 1 AACAAAACAAAAUAGCACCGUAAAGC / RNA 2 GCUUUACGGUGCUA (dsRNA; 14 bp duplex, 5' 12 nt overhang)","DEAD-box ATP-dependent RNA helicase RhpA 1-392 (Pseudomonas aeruginosa, UniProt Q9HX66)",fluorescence polarization,double-stranded RNA,,,Kd,0.218 µM
HVLVMSATRR,,,"peptide, C57BL/6J mice, male, serum","subcutaneous osmotic pump, 3 mg/kg/day peptide basis, 8 weeks",,phosphorus,7.3 mg/dL
MKRRNRFSSLKLNRGY,Streptococcus iniae,"bacterial survival, plate count",peptide,"20 µM, 4 h, room temperature",reference: untreated control,bacterial killing,48%
B1 (Urtica dioica agglutinin),feline infectious peritonitis virus,viral replication,CRFK,,,EC50,1.8 µg/mL
CBR-5884,human coronavirus OC43,virus-induced cell death,MRC-5,,,maximum inhibition,11.2%
HNP1 R15A,Acinetobacter baumannii,crystal violet staining,19606,concentration not given,,biofilm formation,345% and 362% and 419%
GLCGKGGKCCCGC,Candida albicans,growth,"peptide, ATCC 10231, potato dextrose broth","128 µM, 30 °C",,inhibition,0 fraction (0-1)
Avermectin B1,Drosophila melanogaster,"food ingestion, fluorescein feeding",first instar larvae,40 µg/mL,reference: solvent-treated,relative fluorescence,-61.6%
bleomycin sulfate,human coronavirus OC43,viral replication,MRC-5,over 10 dose points,,maximum inhibition,0%
colistin,Aspergillus fumigatus,,solid minimal medium,"80 µM, 4 d",reference: untreated control,radial growth ratio,0.898 and 0.899 and 0.847
insulin human,,item: GRIA1 mRNA,"EcoHIV-infected mouse, brain","i.p., dose not given",reference: PBS,fold change,1.01
TRRRKRLSGFGTAVGY,Streptococcus iniae,"bacterial survival, plate count",peptide,"20 µM, 4 h, room temperature",reference: untreated control,bacterial killing,62.2%
CLCGGKGKKLGKG,Candida albicans,growth,"peptide, ATCC 10231, potato dextrose broth","128 µM, 30 °C",,inhibition,0 fraction (0-1)
RRHQRSRRPYHRMPNP,Streptococcus iniae,"bacterial survival, plate count",peptide,"20 µM, 4 h, room temperature",reference: untreated control,bacterial killing,25.2%
glucagon,,arteriovenous isotope dilution,"human, type 1 diabetes","iv, dose not given, overnight fasted, baseline",,splanchnic extraction,30.7 ± 2.7%
ILSAAWSGITSLV,Escherichia coli,"bacterial growth, OD600 growth curve","peptide, K12 MG1655, MHB broth","40 µM, 24 h, 37 °C",reference: no peptide control,relative growth rate,0.134
B2,Acinetobacter baumannii,crystal violet staining,19606,concentration not given,,biofilm formation,102% and 113% and 153% and 128%
ILSAAWSGITSLF,Escherichia coli,"bacterial growth, OD600 growth curve","peptide, K12 MG1655, MHB broth","40 µM, 24 h, 37 °C",reference: no peptide control,relative growth rate,0.583
heparin sodium,,item: Albuminuria,human healthy Chinese adults,"intravenous infusion, 8 IU/kg/h, 5 days",,subjects with adverse event,0%
Polymyxin B,Klebsiella pneumoniae,,"ATCC 700603, Kunming mouse, pneumonia model, lung homogenate",5 mg/kg,,lung bacterial load,5.08 CFU/mL
ILPWLWPWWPWRR,Escherichia coli,,"peptide, K-12 MG1655, Mueller-Hinton broth","concentration not given, 37 °C, unit not given",reference: no peptide,growth rate,0.000307
orexin-B,"Orexin receptor type 2 (HCRTR2, Homo sapiens, UniProt O43614, del254-292/I293E/K294R/L160H/M161K/Q254E)","sensor fluorescence, fluorescence imaging",HEK293T,"10 µM, together with: OXB 10 µM",reference: baseline,maximal ΔF/F0,833% and 750% and 832% and 887% and 787% and 849%
VRRRRVSRFGRGRGY,Streptococcus iniae,"bacterial survival, plate count",peptide,"20 µM, 4 h, room temperature",reference: untreated control,bacterial killing,61.3%
ILPWCWPWWPWRR,Escherichia coli,,"peptide, K-12 MG1655, Mueller-Hinton broth","concentration not given, 37 °C, unit not given",reference: no peptide,growth rate,0.00124
Polymyxin B,Escherichia coli,,KCTC 1682,"16 h, 37 °C, Mueller-Hinton broth",,MIC,2 µM
RWRYRRRGYLAMG,Pseudomonas fluorescens,"bacterial survival, plate count",peptide,"20 µM, 4 h, room temperature",reference: untreated control,bacterial killing,28.4%
KLGKGGGLLKKLK,Candida albicans,growth,"peptide, ATCC 10231, potato dextrose broth","128 µM, 30 °C",,inhibition,0 fraction (0-1)
ILSAIWSGITSLI,Escherichia coli,"bacterial growth, OD600 growth curve","peptide, K12 MG1655, MHB broth","40 µM, 24 h, 37 °C",reference: no peptide control,relative growth rate,0.534
KRRRGGRLSGFRTAVGY,Streptococcus iniae,"bacterial survival, plate count",peptide,"20 µM, 4 h, room temperature",reference: untreated control,bacterial killing,62.4%
pertussis toxin,,immunostaining,"humanized mouse, SAH model, meninges",dose not given,,p-PKC level,49.1 MFI
DPDPE,,RP-HPLC,HALO RP-amide column,"25 µM, formic acid/acetonitrile, 25 min gradient",,retention time,7.07 min
nonaarginine,PorA peptide pore,"peptide binding, planar bilayer single-channel recording",,"pH 7.4, -40 mV, cis side, 150 mM KCl",,Kd,16.7 ± 2 µM
Polymyxin B,Klebsiella pneumoniae,broth microdilution,"OmpK36-truncated, KPC-2",,,MIC,16 µg/mL
ILPWKWPWWPWRR (C-amide),Escherichia coli,,"peptide, K-12 MG1655","concentration not given, 24 h, 37 °C, unit not given",reference: no peptide,growth rate,0.125
Teicoplanin A2-2,Streptococcus pneumoniae,,penicillin-intermediate,,,MIC,0.12 µg/mL
tetrahydrofolate,"Serine hydroxymethyltransferase, mitochondrial (SHMT2, Homo sapiens, UniProt P34897, Y105F)","enzyme activity, substrate, MTHFD2-coupled NADH fluorescence",,Y105F mutant,,Vmax,85 fluorescence units/s

# For quick reference, copied from above:
Substance,tested on,test,test system,setting,how to read,endpoint,value
tetrahydrofolate,"Serine hydroxymethyltransferase, mitochondrial (SHMT2, Homo sapiens, UniProt P34897, Y105F)","enzyme activity, substrate, MTHFD2-coupled NADH fluorescence",,Y105F mutant,,Vmax,85 fluorescence units/s
Avermectin B1,Drosophila melanogaster,"food ingestion, fluorescein feeding",first instar larvae,40 µg/mL,reference: solvent-treated,relative fluorescence,-61.6%
ILSAIWSGITSLI,Escherichia coli,"bacterial growth, OD600 growth curve","peptide, K12 MG1655, MHB broth","40 µM, 24 h, 37 °C",reference: no peptide control,relative growth rate,0.534
